Results gathered from unrelated publications.
Parts stem from different laboratories: compare values within a part only.

Sample 1
Substance: deucravacitinib
Species: human
Setting: multiple dose
conditions	dyspepsia incidence
2 mg twice daily	22.2%
12 mg once daily	0%
4 mg twice daily	0%

Further values, each from its own experiment
Substance	target or system	test	system	conditions	scale	endpoint	value
semaglutide		measured: moderate severity	human, safety analysis set	concentration not given, 32 weeks, run-in		participants with adverse events	51%
chicoric acid	IPEC-J2 monolayer			with: monensin 50 µM	relative to: without inhibitor	Papp apical to basolateral	no effect
maraviroc			black CYP3A5 extensive metabolizers, plasma	300 mg twice daily		AUC(0-12h)	2180 ng·h/mL

A few entries again (further values, each from its own experiment):
Substance	target or system	test	system	conditions	scale	endpoint	value
semaglutide		measured: moderate severity	human, safety analysis set	concentration not given, 32 weeks, run-in		participants with adverse events	51%
